# Assay results pooled from the literature.
# Lines come from different studies, so protocols differ. Values joined by “and” are separate records of one study, mostly repeats; a detail may differ. ± gives the spread as reported.
# Chain of UniProt Q9UNQ0 (whole entry, looked up): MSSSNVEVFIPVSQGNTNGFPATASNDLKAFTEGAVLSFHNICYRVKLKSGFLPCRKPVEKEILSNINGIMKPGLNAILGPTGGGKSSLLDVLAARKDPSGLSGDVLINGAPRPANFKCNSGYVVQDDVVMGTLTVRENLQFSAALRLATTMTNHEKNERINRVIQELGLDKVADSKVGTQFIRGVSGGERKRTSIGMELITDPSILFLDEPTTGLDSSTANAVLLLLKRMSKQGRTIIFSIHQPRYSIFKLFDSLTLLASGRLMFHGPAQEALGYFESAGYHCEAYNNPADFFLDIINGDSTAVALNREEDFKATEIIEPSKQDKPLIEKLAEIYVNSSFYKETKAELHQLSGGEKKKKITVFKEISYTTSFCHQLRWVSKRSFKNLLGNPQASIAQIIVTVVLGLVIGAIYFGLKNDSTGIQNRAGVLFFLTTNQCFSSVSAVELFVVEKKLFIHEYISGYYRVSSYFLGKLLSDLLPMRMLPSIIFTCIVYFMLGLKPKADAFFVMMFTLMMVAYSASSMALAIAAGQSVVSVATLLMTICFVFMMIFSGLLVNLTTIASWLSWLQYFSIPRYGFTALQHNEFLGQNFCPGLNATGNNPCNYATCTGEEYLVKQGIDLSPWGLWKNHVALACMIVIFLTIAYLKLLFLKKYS
# Chain of UniProt Q4U2R8 (whole entry, looked up): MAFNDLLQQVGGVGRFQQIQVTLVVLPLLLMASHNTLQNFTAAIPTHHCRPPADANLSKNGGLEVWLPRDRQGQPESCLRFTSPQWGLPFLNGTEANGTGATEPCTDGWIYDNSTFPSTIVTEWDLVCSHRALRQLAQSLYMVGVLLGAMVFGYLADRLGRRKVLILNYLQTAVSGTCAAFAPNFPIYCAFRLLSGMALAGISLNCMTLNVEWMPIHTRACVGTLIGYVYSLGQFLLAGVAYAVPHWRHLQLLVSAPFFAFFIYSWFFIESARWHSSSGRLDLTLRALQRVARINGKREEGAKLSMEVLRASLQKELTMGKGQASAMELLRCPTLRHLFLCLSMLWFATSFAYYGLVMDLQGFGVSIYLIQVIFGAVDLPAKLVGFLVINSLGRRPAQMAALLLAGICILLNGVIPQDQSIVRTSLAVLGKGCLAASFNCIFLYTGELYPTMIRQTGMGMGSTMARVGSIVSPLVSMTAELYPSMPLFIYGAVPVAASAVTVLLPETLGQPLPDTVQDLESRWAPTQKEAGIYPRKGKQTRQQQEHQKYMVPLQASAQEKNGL
Compound,tested on,test,test system,conditions,scale,quantity,result
CCN(CC)CCOc1ccc(-c2nnn(Cc3ccc(OC)cc3)c2N)cc1,CYP3A,,,concentration not given,,inhibition,76.2%
CC(=O)NCCCC[C@@H]1NC(=O)[C@H](Cc2c[nH]c3c(C)cccc23)NC(=O)[C@H]([C@@H](C)O)NC(=O)[C@H](CC(N)=O)NC(=O)[C@@H](NC(C)=O)C(C)(C)SSC(C)(C)[C@@H](C(=O)N[C@@H](Cc2ccc(OCCN)cc2)C(=O)N[C@@H](Cc2ccc3ccccc3c2)C(=O)NC2(C(=O)N[C@@H](CCC(=O)O)C(=O)N[C@@H](CC(N)=O)C(=O)N[C@@H](Cc3cccnc3)C(=O)N(C)CC(N)=O)CCOCC2)NC1=O,"Solute carrier family 22 member 6 (SLC22A6, Homo sapiens, UniProt Q4U2R8)",substrate,HEK293 expressing SLC22A6,"5 µM, 30 min",,uptake rate,0.186 ± 0.013 pmol/mg/min
CN1CC[C@]23c4c5ccc(O)c4O[C@H]2[C@H](O)CC[C@@]3(O)[C@H]1C5,,PAMPA-BBB,porcine brain lipid,"500 µM, 4 h, pH 7.4, 1% DMSO",,Papp,2.62 ×10⁻⁶ cm/s
CC[C@H](C)[C@H](NC(=O)[C@H](CCCCN)NC(=O)[C@H](CCCCN)NC(=O)[C@H](Cc1ccccc1)NC(=O)[C@H](Cc1ccccc1)NC(=O)[C@H](CCCCN)NC(=O)[C@H](CCCCN)NC(=O)[C@H](Cc1ccccc1)NC(=O)[C@H](CCCNC(=N)N)NC(=O)[C@@H](N)CCCCN)C(=O)N[C@@H](CCCCN)C(=O)N[C@@H](CCCCN)C(=O)N[C@@H](CO)C(=O)N[C@H](C(=O)N[C@@H](CCCCN)C(=O)N[C@@H](CCCCN)C(=O)N[C@@H](CCCNC(=N)N)C(=O)N[C@H](C(=O)N[C@@H](CCCCN)C(=O)N[C@@H](CCCCN)C(=O)N[C@@H](CC(C)C)C(=O)N[C@@H](Cc1ccccc1)C(=O)N[C@@H](CCCCN)C(=O)N[C@@H](CCCCN)C(=O)N1CCC[C@H]1C(=O)N[C@@H](CCCNC(=N)N)C(=O)N[C@H](C(=O)N[C@H](C(=O)N1CCC[C@H]1C(=O)N[C@H](C(=O)N[C@@H](CO)C(=O)N[C@H](C(=O)N1CCC[C@H]1C(=O)N[C@@H](Cc1ccccc1)C(=O)O)[C@@H](C)CC)[C@@H](C)CC)[C@@H](C)CC)C(C)C)C(C)C)C(C)C,Escherichia coli,MIC after serum incubation,E24,"2 h, 37 °C, together with: 25% mouse serum",,MIC,16 µg/mL
CN1CC[C@]23c4c5ccc(O)c4O[C@H]2[C@H](O)C=C[C@@]3(O)[C@H]1C5,,PAMPA-BBB,porcine brain lipid,"500 µM, 4 h, pH 7.4, 1% DMSO",,Papp,4.15 ×10⁻⁶ cm/s
Cc1ccc(OC[C@@H]2CCN2C)cc1C(=O)N[C@H](C)c1cc(-c2cnn(C)c2)nc2ccccc12,African green monkey cells,,,3.906 µM,,viability,101%
O=C(O)c1cn2c(c(O)c1=O)C(=O)N(Cc1ccc(F)cc1F)C[C@@H]2C(c1ccccc1)c1ccccc1,,,hamster cells,,,CC50,> 10 µM
COc1cc2c(cc1NC(=O)c1cncn1C)C[C@H]1[C@H]3CCCC[C@@]23CCN1C,,,"C57BL/6 mice, plasma","oral, 50 µg/g, 15 min",,plasma concentration,14500 ng/mL and 11700 ng/mL and 10100 ng/mL and 11200 ng/mL and 6560 ng/mL
CN(C)CCCNC(=O)[C@@H]1NC(=O)[C@@H]2Cc3ccc(cc3)Oc3cc4cc(c3O)-c3ccc5c(c[nH]c5c3)C[C@@H](NC(=O)C(NC(=O)CCCCCN)c3ccc(O)cc3)C(=O)N[C@H](c3ccc(O)cc3)C(=O)N[C@H]4C(=O)N[C@@H](C(=O)N2C)c2ccc(cc2)Oc2cc1ccc2O (some centres unmarked),human red blood cells,,PBS,"64 µg/mL, 1 h, pH 7.4, 37 °C",,hemolysis,0%
COc1ccnc(C(=O)N[C@H]2COC(=O)[C@H](Cc3ccccc3)[C@@H](OC(=O)C(C)C)[C@H](C)OC2=O)c1O,Oncorhynchus mykiss,,,"96 h, acute risk assessment",,LC50,0.0073 µg/mL
Cc1cc(-c2cc([C@@H](C)NC(=O)c3cc(OCCN(C)C)ccc3C)c3ccccc3n2)n(C)n1,Vero E6,,,7.812 µM,,viability,106% and 110%
Nc1c2c(nc3sc4c(c13)CCCCC4)CCCC2,CHO,cytotoxicity,,3 days,,IC50,> 10 µM
Cc1nc2cccc(OCC(C)(C)C(=O)NC(C)C)c2c(N)c1C(=O)[O-].[Na+],Salmonella typhimurium,Ames plate incorporation,TA1537,"0.13 mg/plate, together with: with rat liver S9",,revertant colonies,16 ± 4 colonies/plate
COc1ccc2c3c1O[C@H]1[C@@H](O)C=C[C@H]4[C@@H](C2)N(CCc2ccccc2)CC[C@@]341,,,octanol/buffer,"1 h, pH 7.4",,logD,2.61
CC(C)N1CN(C2c3ccccc3CSc3ccccc32)n2cc(C(=O)O)c(=O)c(O)c2C1=O (centres unmarked),,,hamster cells,,,CC50,8.4 µM
Cc1ccc(N2C[C@@H]3C[C@H]2CN3C)cc1C(=O)N[C@H](C)c1cc(-c2cnn(C)c2)nc2ccccc12,African green monkey cells,,,125 µM,,viability,1.63%
COc1ccc2c3c1O[C@H]1[C@H](O)CC[C@H]4[C@@H](C2)N(C)CC[C@@]341,,pH-potentiometric titration,,,reference: O-methyl derivative,"Δlog K, saturation effect",0.58 log units
Cc1cc(-c2ccc3ccccc3c2)nnc1NCCN1CCN(C)CC1,"Broad substrate specificity ATP-binding cassette transporter ABCG2 (ABCG2, Homo sapiens, UniProt Q9UNQ0)",transport,,concentration not given,,inhibition,negative
COc1ccc2c3c1O[C@H]1[C@H](O)CC[C@@]4(O)[C@@H](C2)N(C)CC[C@]314,,pH-potentiometric titration,,,reference: O-methyl derivative,"Δlog K, saturation effect",0.48 log units
O=C(C=Cc1ccc(O)c(O)c1)OC1CC(O)(C(=O)O)CC(OC(=O)C=Cc2ccc(O)c(O)c2)C1O (centres unmarked),Vero E6,,,100 µM,,cytotoxicity,0%
CN(C)c1ccc(-c2nc3ccccc3n2CCCOc2ccccc2)cc1,CHO,cytotoxicity,,3 days,,IC50,> 10 µM
Cc1ccc(OCCN(C)C)cc1C(=O)N[C@H](C)c1cc(-c2cnn(C(C)C)c2)nc2ccccc12,Vero E6,,,125 µM,,viability,2.57% and -0.395%
COc1ccc2c3c1O[C@H]1[C@H](O)C=C[C@H]4[C@@H](C2)N(C)CC[C@@]341,,pH-potentiometric titration,,,reference: O-methyl derivative,"Δlog K, isomerization effect",0.01 log units
CCCCCC1=C(NCC)C(=O)C(C/C=C(\C)CCC=C(C)C)=C(O)C1=O,human peripheral lymphocytes,,,"10 µg/mL, 3 h, with S9, harvest 27 h",,cytostasis,12%
Oc1ccc2c3c1O[C@H]1[C@@H](O)CC[C@H]4[C@@H](C2)N(CC2CCC2)CC[C@@]341,,PAMPA-BBB,porcine brain lipid,"500 µM, 4 h, pH 7.4, 1% DMSO",,Papp,10.9 ×10⁻⁶ cm/s
CCc1nnc(NS(=O)(=O)c2ccc(NC(=O)c3cccc4ccccc34)cc2)s1,"Cytochrome P450 3A4 (CYP3A4, Homo sapiens, UniProt P08684)",,,10 µM,,inhibition,< 10%
CCn1ccc(-c2cc([C@@H](C)NC(=O)c3cc(OCCN(C)C)ccc3C)c3ccccc3n2)n1,Vero E6,,,250 µM,,viability,0% and 0.158%
COc1ccc2c3c1O[C@H]1C(=O)CC[C@@]4(O)[C@@H](C2)N(CC2CCC2)CC[C@]314,,PAMPA-BBB,porcine brain lipid,"500 µM, 4 h, pH 7.4, 1% DMSO",,Papp,57.7 ×10⁻⁶ cm/s
CC1(F)CN(C(=O)Cn2c(=O)c(C(=O)NCc3ccc(Cl)cc3)cc3nc(N4CCN(CCN)C4=O)cnc32)C1,Epstein-Barr virus,qPCR,,single first test,reference: CC50 over EC50,selectivity index,79.7
Cc1ccc(O[C@H]2CCN(C)C2)cc1C(=O)N[C@H](C)c1cc(-c2cnn(C)c2)nc2ccccc12,Vero E6,,,125 µM,,viability,2.45% and 5.05% and 3.82%
NC[C@]1(CC(=O)O)CC[C@H]([18F])CC1,,PET,"rhesus monkey, brain","intravenous, baseline scan",,time to peak brain uptake,~3.8 min
CCn1ccc(-c2cc([C@@H](C)NC(=O)c3cc(OC[C@@H]4CCN4C)ccc3C)c3ccccc3n2)n1,Vero E6,,,125 µM,,viability,2.54% and -0.149%
O=C1NC2(CC2)COc2ncc(F)cc2[C@H]2COCCN2c2ccn3ncc1c3n2,Salmonella typhimurium,Ames test,TA1535,"5000 µg/plate, 48 h, together with: without S9",,revertant colonies,6 ± 1 revertants/plate
CCn1ccc(-c2cc([C@@H](C)NC(=O)c3cc(OC[C@@H]4CCCN4C)ccc3C)c3ccccc3n2)n1,Vero E6,,,7.812 µM,,viability,97.6% and 106% and 98.8%
C[C@@H](N1CN([C@H]2c3ccccc3CSc3ccccc32)n2cc(C(=O)O)c(=O)c(O)c2C1=O)C(F)(F)F,,,bovine cells,,,CC50,> 10 µM
